Measured values pooled from the literature.
Compare with care: the assays were run in different laboratories. Numbers after ± are the reported error. ≈ marks a conversion by molar mass, not a printed value.

SMILES = Nc1cc(S(=O)(=O)O)cc2cc(S(=O)(=O)O)cc(O)c12; tested on = Escherichia coli; test = bacterial growth, broth microdilution; system = expressing OXA-48; setting = 4 µg/mL, together with: ampicillin; scale = MIC of ampicillin; endpoint = MIC of ampicillin; value = 512 µg/mL
SMILES = COc1ccc(CN[C@@H]2CO[C@H](C(c3ccccc3)c3ccccc3)C[C@H]2O)cc1; tested on = NMDA receptor PCP site; test = radioligand binding; setting = 10 µM, together with: MK-801; endpoint = inhibition; value = 15.4%
SMILES = C[C@H](CS)C(=O)N[C@@H](Cc1c[nH]c2ccccc12)C(=O)O; tested on = Klebsiella pneumoniae; system = VIM-1 producing; setting = 10 µM, together with: meropenem; endpoint = MIC of meropenem; value = 16 µg/mL
SMILES = O=S(=O)(O)c1ccc2cc(S(=O)(=O)O)ccc2c1; tested on = Escherichia coli; test = bacterial growth, broth microdilution; system = expressing OXA-48; setting = 32 µg/mL, together with: ampicillin; scale = MIC of ampicillin; endpoint = MIC of ampicillin; value = 128 µg/mL
SMILES = CC1(C)OC2C(COP(=O)(O)Nc3nccs3)OC(n3cnc4c(=O)[nH]c(NC(=O)c5ccccc5)nc43)C2O1 (centres unmarked); tested on = Vero; test = cell growth, SRB; endpoint = IC50; value = > 100 µM
SMILES = CO[C@H]1[C@H](O[C@H]([C@H]2O[C@@H](n3ccc(=O)[nH]c3=O)[C@H](O)[C@@H]2O)[C@H](NCCCNC(=O)[C@@H](NC(=O)[C@@H](NC(=O)N[C@H](C(=O)O)C(C)C)[C@@H]2CCNC(=N)N2)[C@@H](OC(=O)CCCCCCCCCCCCNC(=N)N)C(C)C)C(N)=O)O[C@H](CN)[C@H]1O; tested on = Mycolicibacterium smegmatis; test = alamar blue; system = ATCC 607; setting = nutrient-deficient medium; endpoint = MIC90; value = 0.08 ± 0.026 µg/mL (≈ 0.0668 µM)
SMILES = Nc1n[nH]c(=O)[nH]1; tested on = Aliivibrio fischeri; test = Microtox; setting = 98 mM, 30 min; endpoint = decrease in bioluminescence; value = 71%
SMILES = CCCCCCCCCCCCNC(=O)N[C@H](C(=O)N[C@H]1/C=C/CCNC(=O)/C=C/[C@H](C)NC1=O)C(C)C; tested on = MM1.S bortezomib-resistant; test = cell viability; scale = baseline: EC50 resistant over parental MM1.S; endpoint = resistance index; value = 1.7 ± 0.3
SMILES = NC[C@@H](NC[C@@H]1CCCN1C[C@@H](CO)NC[C@@H](NCCc1ccc(Cl)c(Cl)c1)c1ccccc1)c1ccccc1; tested on = Acinetobacter baumannii; test = bacterial growth; setting = compound alone; endpoint = IC90; value = 15.1 µM
SMILES = CC(C)C(C(=O)N(Cc1ccc(C2CCCCC2)cc1)c1ccc(C(=O)O)cc1)N(C)S(=O)(=O)c1c(F)c(F)c(F)c(F)c1F (centres unmarked); system = NSG mice, Pa03C xenograft; setting = ip, 10 mg/kg, 15 days, study end; scale = baseline: vehicle; endpoint = tumour weight reduction; value = 36%
SMILES = CCc1nc(N)nc(N)c1C#CC(C)c1cc2c(c(-c3ccc(C(=O)O)cc3)c1)OCO2 (centres unmarked); tested on = HepG2; test = cytotoxicity, Alamar Blue; setting = four hours; endpoint = IC50; value = > 200 µg/mL
SMILES = Cc1c(C(=O)NN2CCCCC2)nn(-c2ccc(Cl)cc2Cl)c1-c1ccc(CCCCCBr)cc1; system = mice; setting = i.v., 10 mg/kg; endpoint = tail flick antinociception; value = inactive
SMILES = NC[C@@H](NC[C@@H]1CCCN1C[C@@H](CO)NC[C@@H](NCCC1CC2CCC1C2)c1ccccc1)c1ccccc1 (some centres unmarked); tested on = Klebsiella pneumoniae; test = bacterial growth; setting = compound alone; endpoint = IC50; value = > 24 µM
SMILES = O=S(=O)(O)c1ccc2c(c1)Cc1cc(S(=O)(=O)O)ccc1-2; tested on = Escherichia coli; test = bacterial growth, broth microdilution; system = expressing OXA-48; setting = 16 µg/mL, together with: ampicillin; scale = MIC of ampicillin; endpoint = MIC of ampicillin; value = 256 µg/mL
SMILES = CO[C@H]1[C@H](O[C@H]([C@H]2O[C@@H](n3ccc(=O)[nH]c3=O)[C@H](O)[C@@H]2O)[C@H](NCCCNC(=O)[C@@H](NC(=O)[C@@H](NC(=O)N[C@H](C(=O)O)C(C)C)[C@@H]2CCNC(=N)N2)[C@@H](OC(=O)CCCCCCCCCCCCN(O)C(=N)N)C(C)C)C(N)=O)O[C@H](CN)[C@H]1O; tested on = Enterococcus faecium; test = alamar blue; system = NR-32065; endpoint = MIC90; value = 15.2 ± 0.21 µg/mL (≈ 12.5 µM)
SMILES = NC1=NC2(CCCCC2)N(c2ccc(OCc3cn(CCCCOc4ccc5ccc(=O)oc5c4)nn3)cc2)C(N)=N1; tested on = Mycobacterium bovis BCG; system = resistant, thyA S125P; endpoint = MIC50; value = 3.2 µM (≈ 1.83 µg/mL)
SMILES = NC[C@@H](NC[C@@H]1CCCN1C[C@@H](CO)NC[C@@H](NCCc1ccc(-c2ccccc2)cc1)c1ccccc1)c1ccccc1; tested on = Klebsiella pneumoniae; test = bacterial growth; setting = 16 µM, fold shift of IC90, together with: amikacin; endpoint = potentiation of amikacin; value = 1 fold
SMILES = Cc1ccc(-c2csc(NP(=O)(O)OCC3OC(n4c[n+](Cc5ccccc5)c5c(=O)[nH]c(NC(=O)c6ccccc6)nc54)C4OC(C)(C)OC34)n2)cc1 (centres unmarked); tested on = Caco-2; test = cell growth, SRB; endpoint = IC50; value = 46 ± 1.96 µM
SMILES = NC[C@@H](NC[C@@H]1CCCN1C[C@@H](CO)NC[C@@H](NCCC12CC3CC(CC(C3)C1)C2)c1ccccc1)c1ccccc1; tested on = Klebsiella pneumoniae; test = bacterial growth; setting = compound alone; endpoint = IC90; value = > 24 µM
SMILES = C=CC(=O)Nc1cc(-n2c(=O)ccc3cnc4ccc(-c5cn[nH]c5)cc4c32)ccc1C; tested on = Ramos; test = cell growth; setting = 72 h; endpoint = GI50; value = 0.49 µM
SMILES = CN1CC[C@]23c4c5ccc(O)c4O[C@H]2c2ncc(-c4ccc(Cl)cc4)cc2C[C@@]3(OCCCc2ccccc2)[C@H]1C5; system = CD-1 mouse, chemotherapy-induced neuropathy; setting = sc, 3.2 mg/kg, day 1; scale = baseline: morphine 10 mg/kg; endpoint = AUC increase; value = 165%
SMILES = CC(CCN[C@H](CN[C@H](CO)CN1CCC[C@H]1CN[C@H](CN)c1ccccc1)c1ccccc1)c1ccccc1 (some centres unmarked); tested on = Klebsiella pneumoniae; test = bacterial growth; setting = 8 µM, fold shift of IC90, together with: amikacin; endpoint = potentiation of amikacin; value = 1 fold
SMILES = COc1ccc2c(c1)c(CC(=O)NCCCCNC(=O)CCC(=O)OC1c3cc4c(cc3C(c3cc(OC)c(OC)c(OC)c3)C3C(=O)OCC13)OCO4)c(C)n2C(=O)c1ccc(Cl)cc1 (centres unmarked); tested on = various tumour and normal lines; test = inhibitor; endpoint = cell proliferation; value = inhibited

For quick reference, copied from above:
SMILES = CO[C@H]1[C@H](O[C@H]([C@H]2O[C@@H](n3ccc(=O)[nH]c3=O)[C@H](O)[C@@H]2O)[C@H](NCCCNC(=O)[C@@H](NC(=O)[C@@H](NC(=O)N[C@H](C(=O)O)C(C)C)[C@@H]2CCNC(=N)N2)[C@@H](OC(=O)CCCCCCCCCCCCNC(=N)N)C(C)C)C(N)=O)O[C@H](CN)[C@H]1O; tested on = Mycolicibacterium smegmatis; test = alamar blue; system = ATCC 607; setting = nutrient-deficient medium; endpoint = MIC90; value = 0.08 ± 0.026 µg/mL (≈ 0.0668 µM)
SMILES = CN1CC[C@]23c4c5ccc(O)c4O[C@H]2c2ncc(-c4ccc(Cl)cc4)cc2C[C@@]3(OCCCc2ccccc2)[C@H]1C5; system = CD-1 mouse, chemotherapy-induced neuropathy; setting = sc, 3.2 mg/kg, day 1; scale = baseline: morphine 10 mg/kg; endpoint = AUC increase; value = 165%
SMILES = O=S(=O)(O)c1ccc2c(c1)Cc1cc(S(=O)(=O)O)ccc1-2; tested on = Escherichia coli; test = bacterial growth, broth microdilution; system = expressing OXA-48; setting = 16 µg/mL, together with: ampicillin; scale = MIC of ampicillin; endpoint = MIC of ampicillin; value = 256 µg/mL
